Published values from different studies.
Numbered parts are unrelated; each lists some results of a single study.

Study 1
Target: Sal-like protein 4, full length isoform A (SALL4, Homo sapiens, UniProt Q9UJQ4, residues 1-1053)
UniProt Q9UJQ4, sequence (whole entry, looked up): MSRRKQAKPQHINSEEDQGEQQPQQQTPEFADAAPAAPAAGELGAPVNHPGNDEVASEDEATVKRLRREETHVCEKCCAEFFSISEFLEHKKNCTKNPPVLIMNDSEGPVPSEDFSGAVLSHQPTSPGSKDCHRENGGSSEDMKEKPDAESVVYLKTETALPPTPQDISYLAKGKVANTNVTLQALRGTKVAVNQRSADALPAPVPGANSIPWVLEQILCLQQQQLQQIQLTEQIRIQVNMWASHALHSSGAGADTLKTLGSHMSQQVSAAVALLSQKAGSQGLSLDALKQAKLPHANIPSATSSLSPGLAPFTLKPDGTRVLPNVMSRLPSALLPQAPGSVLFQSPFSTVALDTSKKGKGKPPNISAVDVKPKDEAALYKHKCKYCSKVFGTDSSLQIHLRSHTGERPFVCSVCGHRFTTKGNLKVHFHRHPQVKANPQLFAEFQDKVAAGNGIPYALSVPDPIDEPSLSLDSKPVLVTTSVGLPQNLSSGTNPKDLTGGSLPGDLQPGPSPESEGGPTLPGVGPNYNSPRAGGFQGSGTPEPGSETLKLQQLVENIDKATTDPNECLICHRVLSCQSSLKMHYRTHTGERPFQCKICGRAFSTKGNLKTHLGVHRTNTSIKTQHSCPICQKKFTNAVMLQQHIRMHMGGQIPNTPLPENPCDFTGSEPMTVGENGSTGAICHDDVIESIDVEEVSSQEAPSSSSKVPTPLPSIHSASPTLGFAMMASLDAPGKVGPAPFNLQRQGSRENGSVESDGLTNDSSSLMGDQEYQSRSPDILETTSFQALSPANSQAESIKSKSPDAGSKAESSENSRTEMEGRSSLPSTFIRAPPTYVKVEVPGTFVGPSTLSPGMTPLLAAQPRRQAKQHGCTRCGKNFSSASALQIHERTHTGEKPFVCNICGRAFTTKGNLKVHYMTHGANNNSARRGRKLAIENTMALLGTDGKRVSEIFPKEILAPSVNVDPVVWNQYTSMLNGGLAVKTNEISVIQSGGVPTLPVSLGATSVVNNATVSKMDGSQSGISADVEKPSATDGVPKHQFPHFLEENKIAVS
Technique: universal PBM
Form: double-stranded DNA, one strand shown
Matrix: in vitro
Tested at: 600 nM
Setting: 8-mer, flanks averaged, mean of replicates
Reading: higher = stronger binding
Strand | E-score
ATCAGTTG | 0.105
AGTGAGGA | 0.0387
CTGTTATA | 0.273
AAGACCTC | -0.143
CCAAGGCA | -0.175
AAGGTGAC | -0.0223
GGCAAGCA | -0.0768
AGAGATCC | -0.0409

Study 2
Target: TAR DNA-binding protein 43, full length, His tag (TARDBP, Homo sapiens, UniProt Q13148, residues 1-414)
Technique: RNA Bind-n-Seq
Form: RNA
Matrix: in vitro
Tested at: 20 nM
Setting: 6-mer, flanks averaged, single round
With: 150 mM LiCl
Baseline: input library
Reading: higher = stronger binding
Strand | 6-mer enrichment (R)
UCUAGA | 0.817
UCCCAU | 0.994
GAAGUA | 0.974
AGCUCC | 0.973
CGUCAG | 0.886
AUUUGU | 1.22
CGUAGU | 0.936
AAUAGG | 0.971

Study 3
Target: RNA binding protein fox-1 homolog 2, RRM domain, GST-SBP tag (RBFOX2, Homo sapiens, UniProt O43251-10, residues 100-194)
Technique: RNA Bind-n-Seq
Form: RNA
Matrix: in vitro
Tested at: 365 nM
Setting: natural RNA segment, single round, ends assumed
Baseline: no-protein control
Reading: higher = stronger binding
All sequences stand within: GGGAGUUCUACAGUCCGACGAUC … UGGAAUUCUCGGGUGCCAA
Construct (chain): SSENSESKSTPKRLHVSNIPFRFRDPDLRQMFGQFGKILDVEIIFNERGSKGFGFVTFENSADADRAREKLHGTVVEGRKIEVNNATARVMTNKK
Strand | RBNS enrichment (R)
ACAGAUGCCCUCAGAAUUGGGGCAUGGGAGGGGGGCUGGGGGACCCCAUGAUUCAGCCACGGACUCCAAUGCCCAGCUCCUCUCCCCAAAACAAUCCCGACAAUCCCUUA | 0.244
ACACCUGAGUGCAUUUAAGUAUUUAGAGUAUAAGUUUCAUGCAUAGAAAGUUAACCCUAUUAAUUUCAGUAUCAAACAUUGUUACAGUCAAAGACAAGGAAGACCAAACC | 0.274
UACAUCUUGGAUUAAUCUUCUGAUUCAUUGUUCAUUUUCUCAAGACUUUUUGUGGAAUUCUCUGAUAAAGGAAGCUUUUAGGAUGGUAUCUAUCAGGCCACCAGCAGGAA | 0.504
GUUCCGGAGCACCCUUGUGAAGAAAAUGUGUUCUUUCUUCCGAUGGGUCCAGUUGCAGUGGCCAAUUUCCUGAAACCUGUCUUUUCCUAAGCGCUGACCGUGAACUCUGC | 0.581
UCUGUCUGCCCCACUGUCCUGGGGUCGCUCUUGGGAGGCACAGGCAUGGGUGUGUCUGGCCUCAUUCUGUAUCAGUCCAGUGUGUUCCUGUCAUAGUUUGUGUCUCCCAG | 0.326
AUGUUAGGAUCCUUCAACAGUUUCUCAGAUGCCAGCUAUGGCUGGCAUCCAGUAUGGUGGUGUAAUGGAAGUGUACUACUAGCACUACUACAUCAGGUCAGCACAGAUUA | 0.299
GGUAGUGCUCUAUCUGGUCAGGCUAUAGGCUGCGGGCAGCCUUCACUUCCAACCAGCCGCUGUGAGGAUUUAGUGAGCUAACGCAUGUAAGCAUUUAGCAAGGUGCCUGG | 20
AUCAGAAAAACCAUAGUGAAGAAAAACUUAACUGAAUUGGCAAAGACUUUGGGGGCAGAAAACCCUAUAAGUAUAACCAAGAGGAAAGUUUUUCACUAAGAAUUUAGUUA | 0.379

Single results of other studies
Structure (SMILES) | technique | species | dose | setting | endpoint | result
CC(C)n1cnc(-c2ccc(F)cc2)c1-c1ncc(C(=O)Nc2ccc(N3CCN(C)CC3)cc2)[nH]1 | phase 2a trial | idiopathic pulmonary fibrosis patients | dose not given | adverse event grade 2, all dose arms pooled | patients with cardiac disorders | 0%

A few entries again (study 2):
Strand | 6-mer enrichment (R)
UCCCAU | 0.994
UCUAGA | 0.817
AAUAGG | 0.971
